Results from different studies.
A part holds a random share of what one study measured. “And” joins repeats or separate records; there may be more than shown.
UniProt Q9H093, sequence (whole entry, looked up): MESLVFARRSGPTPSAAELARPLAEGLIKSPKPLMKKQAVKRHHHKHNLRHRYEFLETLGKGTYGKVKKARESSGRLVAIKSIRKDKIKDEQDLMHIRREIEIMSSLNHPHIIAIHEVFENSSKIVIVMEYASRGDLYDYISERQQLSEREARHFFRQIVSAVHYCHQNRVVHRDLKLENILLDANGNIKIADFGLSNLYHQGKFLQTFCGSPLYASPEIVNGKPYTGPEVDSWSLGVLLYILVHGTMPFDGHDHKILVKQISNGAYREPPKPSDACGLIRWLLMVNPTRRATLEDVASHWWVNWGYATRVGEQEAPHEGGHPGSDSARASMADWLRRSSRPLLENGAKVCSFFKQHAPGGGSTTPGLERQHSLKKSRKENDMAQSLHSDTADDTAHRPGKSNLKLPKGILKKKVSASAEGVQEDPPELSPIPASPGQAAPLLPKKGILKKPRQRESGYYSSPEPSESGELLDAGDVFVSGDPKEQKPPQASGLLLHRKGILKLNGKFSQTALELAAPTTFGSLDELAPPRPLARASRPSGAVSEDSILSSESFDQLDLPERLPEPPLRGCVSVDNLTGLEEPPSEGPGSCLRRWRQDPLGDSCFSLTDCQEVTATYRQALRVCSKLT
UniProt Q14012, sequence (whole entry, looked up): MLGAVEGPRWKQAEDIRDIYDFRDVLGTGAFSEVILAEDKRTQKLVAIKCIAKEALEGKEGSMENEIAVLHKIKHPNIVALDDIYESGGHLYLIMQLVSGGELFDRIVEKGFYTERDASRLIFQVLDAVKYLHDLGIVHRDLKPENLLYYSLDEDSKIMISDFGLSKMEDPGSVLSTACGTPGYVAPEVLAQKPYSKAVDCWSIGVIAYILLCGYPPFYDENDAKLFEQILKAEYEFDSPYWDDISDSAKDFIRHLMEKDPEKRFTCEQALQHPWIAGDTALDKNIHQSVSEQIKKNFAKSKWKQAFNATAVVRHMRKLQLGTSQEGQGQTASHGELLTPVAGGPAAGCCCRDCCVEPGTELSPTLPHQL
UniProt Q9Y2K2, sequence (whole entry, looked up): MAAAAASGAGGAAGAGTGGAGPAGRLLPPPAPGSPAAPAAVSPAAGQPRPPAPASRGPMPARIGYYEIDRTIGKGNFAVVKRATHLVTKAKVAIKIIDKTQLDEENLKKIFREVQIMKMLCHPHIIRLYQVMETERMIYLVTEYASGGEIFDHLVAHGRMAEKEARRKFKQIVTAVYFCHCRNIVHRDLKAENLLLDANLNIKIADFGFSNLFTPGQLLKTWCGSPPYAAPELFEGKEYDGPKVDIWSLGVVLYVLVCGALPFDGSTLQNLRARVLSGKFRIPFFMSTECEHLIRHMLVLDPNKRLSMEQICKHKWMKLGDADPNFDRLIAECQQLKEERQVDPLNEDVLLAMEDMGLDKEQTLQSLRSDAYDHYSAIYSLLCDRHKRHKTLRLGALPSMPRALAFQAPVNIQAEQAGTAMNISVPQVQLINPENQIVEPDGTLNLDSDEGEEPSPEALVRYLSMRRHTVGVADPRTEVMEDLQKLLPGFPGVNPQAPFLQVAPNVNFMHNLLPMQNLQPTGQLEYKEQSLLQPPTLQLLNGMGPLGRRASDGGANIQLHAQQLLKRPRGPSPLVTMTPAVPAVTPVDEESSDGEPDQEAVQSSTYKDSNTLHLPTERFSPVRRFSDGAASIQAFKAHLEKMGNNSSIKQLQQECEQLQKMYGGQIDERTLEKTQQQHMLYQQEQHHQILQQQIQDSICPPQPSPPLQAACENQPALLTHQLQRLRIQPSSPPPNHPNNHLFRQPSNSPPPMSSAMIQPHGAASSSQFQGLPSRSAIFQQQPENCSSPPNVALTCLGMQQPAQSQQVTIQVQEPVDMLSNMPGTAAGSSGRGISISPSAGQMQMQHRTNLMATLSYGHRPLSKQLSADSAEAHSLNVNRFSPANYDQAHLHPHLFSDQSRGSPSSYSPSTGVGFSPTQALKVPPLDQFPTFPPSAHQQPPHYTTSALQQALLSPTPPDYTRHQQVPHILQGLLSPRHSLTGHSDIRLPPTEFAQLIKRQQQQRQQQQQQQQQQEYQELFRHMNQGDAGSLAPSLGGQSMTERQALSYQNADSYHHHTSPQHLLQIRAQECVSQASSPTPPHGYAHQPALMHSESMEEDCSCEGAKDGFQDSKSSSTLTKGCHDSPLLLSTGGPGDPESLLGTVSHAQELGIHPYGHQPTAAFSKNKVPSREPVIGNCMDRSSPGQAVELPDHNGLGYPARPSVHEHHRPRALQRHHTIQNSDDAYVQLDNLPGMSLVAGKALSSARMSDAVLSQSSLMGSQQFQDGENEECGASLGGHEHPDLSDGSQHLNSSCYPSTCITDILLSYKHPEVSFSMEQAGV
UniProt Q9UKI8, sequence (whole entry, looked up): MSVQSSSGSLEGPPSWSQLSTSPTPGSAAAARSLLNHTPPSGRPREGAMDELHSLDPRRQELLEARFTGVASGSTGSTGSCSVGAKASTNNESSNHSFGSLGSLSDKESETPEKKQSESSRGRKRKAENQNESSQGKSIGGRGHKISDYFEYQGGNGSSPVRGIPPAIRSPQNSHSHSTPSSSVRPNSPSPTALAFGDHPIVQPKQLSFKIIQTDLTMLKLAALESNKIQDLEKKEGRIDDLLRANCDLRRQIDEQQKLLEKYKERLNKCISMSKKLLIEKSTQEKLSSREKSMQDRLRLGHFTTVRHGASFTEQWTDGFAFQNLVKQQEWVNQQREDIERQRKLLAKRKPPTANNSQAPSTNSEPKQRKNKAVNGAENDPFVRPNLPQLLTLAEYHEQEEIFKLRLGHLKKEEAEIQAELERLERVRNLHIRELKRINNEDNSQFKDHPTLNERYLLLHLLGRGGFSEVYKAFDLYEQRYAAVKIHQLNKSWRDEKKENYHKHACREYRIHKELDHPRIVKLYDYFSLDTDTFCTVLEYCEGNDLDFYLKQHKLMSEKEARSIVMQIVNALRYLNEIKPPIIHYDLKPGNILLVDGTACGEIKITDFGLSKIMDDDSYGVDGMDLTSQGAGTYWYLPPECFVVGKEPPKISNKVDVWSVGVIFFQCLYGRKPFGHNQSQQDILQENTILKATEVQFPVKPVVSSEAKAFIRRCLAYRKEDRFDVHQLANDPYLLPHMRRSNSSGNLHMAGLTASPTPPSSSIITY
UniProt P15735, sequence (whole entry, looked up): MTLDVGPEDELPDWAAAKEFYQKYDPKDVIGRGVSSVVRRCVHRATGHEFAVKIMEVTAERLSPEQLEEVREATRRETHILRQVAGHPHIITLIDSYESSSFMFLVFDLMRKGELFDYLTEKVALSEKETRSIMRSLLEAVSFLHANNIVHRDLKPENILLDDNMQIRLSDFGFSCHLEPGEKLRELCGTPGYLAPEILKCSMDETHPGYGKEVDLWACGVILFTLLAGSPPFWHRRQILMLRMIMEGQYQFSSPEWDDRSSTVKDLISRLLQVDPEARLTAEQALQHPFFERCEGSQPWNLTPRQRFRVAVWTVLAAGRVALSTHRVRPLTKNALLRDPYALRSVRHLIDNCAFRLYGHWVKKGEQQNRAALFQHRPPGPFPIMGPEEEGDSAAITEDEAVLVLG
UniProt Q9BXA7, sequence (whole entry, looked up): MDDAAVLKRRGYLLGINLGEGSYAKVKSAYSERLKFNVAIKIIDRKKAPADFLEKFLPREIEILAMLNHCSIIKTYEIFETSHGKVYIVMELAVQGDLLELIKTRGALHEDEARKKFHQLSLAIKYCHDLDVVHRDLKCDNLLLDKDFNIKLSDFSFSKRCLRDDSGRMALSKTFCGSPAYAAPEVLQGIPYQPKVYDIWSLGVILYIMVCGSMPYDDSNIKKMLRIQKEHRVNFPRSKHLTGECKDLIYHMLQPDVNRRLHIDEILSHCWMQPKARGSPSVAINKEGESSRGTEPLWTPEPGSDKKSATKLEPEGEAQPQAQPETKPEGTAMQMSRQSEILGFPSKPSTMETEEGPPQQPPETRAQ
UniProt P23458, sequence (whole entry, looked up): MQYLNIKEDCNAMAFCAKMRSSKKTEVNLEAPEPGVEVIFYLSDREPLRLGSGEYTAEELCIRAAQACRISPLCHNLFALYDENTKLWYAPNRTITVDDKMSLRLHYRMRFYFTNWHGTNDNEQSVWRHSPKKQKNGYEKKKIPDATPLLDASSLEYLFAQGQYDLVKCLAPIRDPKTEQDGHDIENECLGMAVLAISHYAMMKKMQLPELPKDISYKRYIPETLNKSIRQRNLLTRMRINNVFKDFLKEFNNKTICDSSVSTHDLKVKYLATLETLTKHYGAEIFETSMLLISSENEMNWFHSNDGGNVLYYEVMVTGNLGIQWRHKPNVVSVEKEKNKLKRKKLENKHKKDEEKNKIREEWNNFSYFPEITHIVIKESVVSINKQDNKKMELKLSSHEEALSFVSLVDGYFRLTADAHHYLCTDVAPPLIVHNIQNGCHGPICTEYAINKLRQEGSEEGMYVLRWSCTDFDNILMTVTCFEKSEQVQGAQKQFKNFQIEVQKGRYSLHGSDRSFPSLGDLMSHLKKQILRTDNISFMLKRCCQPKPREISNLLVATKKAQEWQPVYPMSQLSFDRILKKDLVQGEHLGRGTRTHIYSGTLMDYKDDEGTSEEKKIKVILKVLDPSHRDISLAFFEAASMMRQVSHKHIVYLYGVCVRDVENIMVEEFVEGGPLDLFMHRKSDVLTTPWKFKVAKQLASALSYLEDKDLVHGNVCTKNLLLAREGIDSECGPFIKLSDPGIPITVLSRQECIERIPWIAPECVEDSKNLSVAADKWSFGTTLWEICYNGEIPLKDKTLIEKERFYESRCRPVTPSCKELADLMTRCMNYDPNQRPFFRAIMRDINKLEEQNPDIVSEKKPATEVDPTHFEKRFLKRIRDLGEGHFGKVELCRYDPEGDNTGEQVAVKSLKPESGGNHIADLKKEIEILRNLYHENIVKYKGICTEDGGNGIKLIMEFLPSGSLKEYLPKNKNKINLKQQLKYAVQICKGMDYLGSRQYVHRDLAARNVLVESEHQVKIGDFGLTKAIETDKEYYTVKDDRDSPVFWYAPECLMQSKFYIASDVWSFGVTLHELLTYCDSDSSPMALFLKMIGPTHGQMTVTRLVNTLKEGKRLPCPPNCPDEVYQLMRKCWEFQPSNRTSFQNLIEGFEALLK

Series 1 — technique: RNA Bind-n-Seq; form: RNA; matrix: in vitro; concentration: 365 nM; reference: no-protein control; reading: higher = stronger binding
Target: RNA binding protein fox-1 homolog 2, RRM domain, GST-SBP tag (RBFOX2, Homo sapiens, UniProt O43251-10, residues 100-194)
Notes: natural RNA segment, single round, ends assumed
All sequences stand within: GGGAGUUCUACAGUCCGACGAUC … UGGAAUUCUCGGGUGCCAA
Residues (chain): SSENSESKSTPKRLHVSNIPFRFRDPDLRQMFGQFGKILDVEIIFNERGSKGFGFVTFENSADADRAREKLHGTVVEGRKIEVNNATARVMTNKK
Strand	RBNS enrichment (R)
UUGUACUGUGGCCACGAUUUGUCCCCGUGAUGAUUCUUGGGUCUAGAUUGUGAGUUCUUCAAGGGCAGGCUCAUCUCCUGCACAUCUUUCUACUUCUCUACAGCAGCUGU	0.252
AGGAACUGCUGGCCGAGCCCGCUGGGAGUCUAGAAAGAGAAAAUCUGUUUCUAGACCUCAGUUAUUUUCCCAUUUUUGGUUGUUUUGAAGCAGUAACAUUUUUCUCAGUG	0.349
CCUGGUGAAAAAUAAAAACCGGAGAAGUCAUUUGGAGGGCCAUCCUAAAGCUCUACUGUAUAAUGACGCCAGCAUGAGCCAGAAAGGGAAGGGCAGUGGGACUUGAGUAU	2.78
GUGGUGGUAGCCAUCCCACAUGGUGUCCAGAGGAAAGCUACGCGCAUUUAUACUGUCUGUUCUGUACAGUUCUCUCAGAUAAUGACAAUAGCUUGGGAUUUUUUUUUUUU	0.36
UACUAUAUCAUCUGAGGUUUUAAGUGGUAACUGGUUCUAUACCAUGUAUGUAUCAUAUGUUUGUUCAUCAAAGCUUUUUAAUCCAAAUAAAAACAACAGUUUGCAAAGUG	0.528
CUGGUGUUAGAUUGUUUUGAAUUCUGUUGUCCACAAGAACUCUGUUCUCGUGUUCUUUUGUUUCCGAGUGCUUAUAAUGCAUGUAGACCUUGUUCUUCGUGAUCCUGCUA	1.55
CUGUCACCCUGAGCACUCUGCGCUGGGGAGGGGUUUAAAUUAUUGACCUUGUACAGUCUGCUUGCUGGCUCUGAAAGCUGGGGUUGGGGGACAGAGUCUCAAGCCCUUAA	0.488
UUGAAAGGAAAGAUUGGGUUGCAUAGUCAUAGUACAUGAAUCCAAUCAAAGAUGAUACAAUAUUUCCCUCACUUCUGUUUUGCUGGCCUUAACUGGUAUCAAACAGUGUC	0.393

Series 2 — read-out: cell-free assay; technique: competition with immobilised ligand; concentration: 1 µM
SMILES: O=C1CCc2cc(Nc3cc(OC4CCOCC4)c([N+](=O)[O-])cc3Cl)ccc2N1
target	remaining binding [%]
Proto-oncogene tyrosine-protein kinase receptor Ret (RET, Homo sapiens, UniProt P07949)	89
Tyrosine-protein kinase JAK1, JH1 (JAK1, Homo sapiens, UniProt P23458)	94
Mitogen-activated protein kinase kinase kinase 2 (MAP3K2, Homo sapiens, UniProt Q9Y2U5)	100
Testis-specific serine/threonine-protein kinase 1 (TSSK1B, Homo sapiens, UniProt Q9BXA7)	85
Mitogen-activated protein kinase 12 (MAPK12, Homo sapiens, UniProt P53778)	100
Tyrosine-protein kinase ABL1, non-phosphorylated (ABL1, Homo sapiens, UniProt P00519, Q252H)	79
Serine/threonine-protein kinase SIK3 (SIK3, Homo sapiens, UniProt Q9Y2K2)	75
Phosphorylase b kinase gamma catalytic chain, liver/testis isoform (PHKG2, Homo sapiens, UniProt P15735)	100
Interleukin-1 receptor-associated kinase 1 (IRAK1, Homo sapiens, UniProt P51617)	98
NUAK family SNF1-like kinase 2 (NUAK2, Homo sapiens, UniProt Q9H093)	89
Ephrin type-B receptor 4 (EPHB4, Homo sapiens, UniProt P54760)	100
Dual specificity mitogen-activated protein kinase kinase 5 (MAP2K5, Homo sapiens, UniProt Q13163)	100
Serine/threonine-protein kinase tousled-like 1 (TLK1, Homo sapiens, UniProt Q9UKI8)	92
Dual specificity mitogen-activated protein kinase kinase 3 (MAP2K3, Homo sapiens, UniProt P46734)	86
Ribosomal protein S6 kinase alpha-1, N-terminal kinase domain (RPS6KA1, Homo sapiens, UniProt Q15418)	100

Series 3 — read-out: enzyme activity; mode: inhibitor; concentration: 0.5 µM; reference: control
Structure (SMILES): C[C@@H]1CCN(C(=O)CC#N)C[C@@H]1N(C)c1ncnc2[nH]ccc12
target	remaining activity [%]
Serine/threonine-protein kinase SIK2 (SIK2, Homo sapiens, UniProt Q9H0K1)	89.2
Calcium/calmodulin-dependent protein kinase kinase 1 (CAMKK1, Homo sapiens, UniProt Q8N5S9)	101
Dual specificity protein kinase CLK2 (CLK2, Homo sapiens, UniProt P49760)	85.8
Tyrosine-protein kinase Tec (TEC, Homo sapiens, UniProt P42680)	95.4
Dual specificity protein kinase CLK1 (CLK1, Homo sapiens, UniProt P49759)	99.5
Serine/threonine-protein kinase PAK 6 (PAK6, Homo sapiens, UniProt Q9NQU5)	102
Calcium/calmodulin-dependent protein kinase type 1 (CAMK1, Homo sapiens, UniProt Q14012)	99.3
Serine/threonine-protein kinase PAK 1 (PAK1, Homo sapiens, UniProt Q13153)	108

Single results of other studies
Compound	target or system	test	system	setting	how to read	measurement	value
CCC[C@@H]1NC(=O)CSC[C@@H](C(=O)OCC)N(C)C(=O)[C@H](CC(C)C)NC(=O)[C@@H](C)N(C)C(=O)[C@H](CC(C)C)NC(=O)[C@H](C)N(C)C(=O)[C@H]2CCCN2C(=O)[C@H](CC(C)C)NC(=O)CN(C)C1=O	–	–	hydrocarbon/water	–	–	logD	0.958
COCc1cc(C(=O)Nc2cc([C@H]3CC[C@@H](OC(=O)NC(C)C)C3)[nH]n2)n(C)n1	NCI-H1048	Vi-Cell	–	125 nM, 6 d	reference: DMSO	cell count	0.681 and 0.518 and 0.412

A few entries again (series 1):
Strand	RBNS enrichment (R)
AGGAACUGCUGGCCGAGCCCGCUGGGAGUCUAGAAAGAGAAAAUCUGUUUCUAGACCUCAGUUAUUUUCCCAUUUUUGGUUGUUUUGAAGCAGUAACAUUUUUCUCAGUG	0.349
UUGAAAGGAAAGAUUGGGUUGCAUAGUCAUAGUACAUGAAUCCAAUCAAAGAUGAUACAAUAUUUCCCUCACUUCUGUUUUGCUGGCCUUAACUGGUAUCAAACAGUGUC	0.393
